Assay results pooled from the literature.
Lines come from different studies, so protocols differ. Numbers after ± are the reported error.

SMILES = CC(C)c1nc(N(C)S(C)(=O)=O)nc(-c2ccc(F)cc2)c1/C=C/[C@@H](O)C[C@@H](O)CC(=O)O; test system = human, plasma; conditions = oral, 20 mg, day 2, mean, alone; Cmax = 6.09 ng/mL
SMILES = O=C(c1cc(Cc2n[nH]c(=O)c3ccccc23)ccc1F)N1CCN(C(=O)C2CC2)CC1; test system = human, plasma; conditions = oral, 25 mg, cycle 1 day 0, dose level -1; Cmax = 1350 ng/mL
SMILES = COc1cc([C@H]2Oc3ccc([C@H]4Oc5cc(O)cc(O)c5C(=O)[C@@H]4O)cc3O[C@@H]2CO)ccc1O; test system = OATP1B1/1B3 humanized mice, plasma; conditions = oral gavage, 500 mg/kg silymarin; Cmax = 510 nM
SMILES = COc1nnc2ccc(N3CCC(c4ccc(OCCN5CCN(C)C(=O)[C@H]5C)cc4)CC3)nn12; test system = human, plasma; conditions = oral, 40 mg once daily, single dose, monotherapy; Cmax = 232 nM
SMILES = C#C[C@]1(CO)O[C@@H](n2cnc3c(N)nc(F)nc32)C[C@@H]1O; test system = human, plasma; conditions = oral, 5 mg, geometric mean; Cmax = 147 nM
SMILES = CC(C)(Sc1ccncc1-c1ccc(C#N)c2ccccc12)C(=O)O; test system = human, plasma; conditions = oral, 5 mg once daily, together with: febuxostat 0 mg; Cmax = 17.2 ng/mL
SMILES = CN(C(=O)C(C)(C)c1cc(C(F)(F)F)cc(C(F)(F)F)c1)c1cnc(N2C[C@H]3COCCN3C[C@H]2CO)cc1-c1ccc(F)cc1[14CH3]; assay = refers to: total radioactivity; test system = human, whole blood; conditions = oral, 120 mg; Cmax = 527 ng equiv/mL
SMILES = C#Cc1cccc(Nc2ncnc3cc(OCCOC)c(OCCOC)cc23)c1; test system = human, plasma; conditions = oral, 50 mg daily, day 8, together with: docetaxel; Cmax = 1640 ± 680 nM
SMILES = COc1ccc2nc([S@@+]([O-])Cc3ncc(C)c(OC)c3C)[nH]c2c1; test system = human, dried blood spots; conditions = oral, 10 mg omeprazole, control arm; Cmax = 108 ng/mL
SMILES = Cc1cn(C(=O)c2c(-c3c(Cl)cc(Cl)cc3Cl)noc2C(C)(C)F)c2cccc(/C=C/C(=O)O)c12; test system = human patients; conditions = 125 mg bid, cycle 8 day 1; Cmax = 10400 ng/mL
SMILES = N#C[C@H](C[C@@H]1CCCNC1=O)NC(=O)[C@H](CC1CC1)NC(=O)c1cc2cccc(Cl)c2[nH]1; test system = human, plasma; conditions = 225 mg twice daily, day 1; Cmax = 1870 ng/mL
SMILES = C=CCn1c(=O)c2cnc(Nc3ccc(N4CCN(C)CC4)cc3)nc2n1-c1cccc(C(C)(C)O)n1; test system = human, plasma; conditions = oral, 125 mg twice daily, day -5 lead-in, geometric mean, monotherapy; Cmax = 676 nM
SMILES = CC(C)NC(=O)COc1cccc(-c2nc(Nc3ccc4[nH]ncc4c3)c3ccccc3n2)c1; test system = human, male, fed, plasma; conditions = oral, 200 mg, day 3, adjusted geometric mean; Cmax = 2130 ng/mL
SMILES = Cc1cc(OCCOCCC(F)(F)P(=O)(O)O)ccc1CCc1cnc2c(N)nc3cc(CCC(=O)O)ccc3c2c1; test system = human, serum; conditions = intratumoral, 600 µg every 2 weeks, cycle 1 day 1; Cmax = 2.77 ng/mL
SMILES = C=CC(=O)N(C)CCOc1c(N)ncnc1-c1cc(F)cc(NC(=O)c2ccc(C3CC3)cc2F)c1C; test system = human, whole blood; conditions = oral, 600 mg, single ascending dose, fasted; Cmax = 511 ng/mL
SMILES = Cc1ccc(C(=O)N(CCCN)C(c2nc3snc(C)c3c(=O)n2Cc2ccccc2)C(C)C)cc1 (centres unmarked); test system = human patients, plasma; conditions = intravenous, 4 mg/day, day 3 of induction course, geometric mean; Cmax = 19.3 ng/mL
SMILES = Cc1cc(C)c(CNC(=O)c2cc(Cl)c3c(c2C)O[C@@](C)([C@H]2CC[C@H](N(C)C)CC2)O3)c(=O)[nH]1; test system = human, NHL patients, plasma; conditions = oral, 200 mg/day, cycle 1 day 15, once daily; Cmax = 1710 ng/mL
SMILES = C[C@H](CCC(=O)NCCS(=O)(=O)O)[C@H]1CC[C@H]2[C@@H]3CC[C@@H]4C[C@H](OS(=O)(=O)O)CC[C@]4(C)[C@H]3CC[C@]12C; test system = human, plasma; conditions = concentration not given, endogenous control diurnal; Cmax = 216 ± 45 nM
SMILES = CO[C@H]1/C=C/O[C@@]2(C)Oc3c(C)c(O)c4c(O)c(c(/C=N/N5CCN(C)CC5)c(O)c4c3C2=O)NC(=O)/C(C)=C\C=C\[C@H](C)[C@H](O)[C@@H](C)[C@@H](O)[C@@H](C)[C@H](OC(C)=O)[C@@H]1C; test system = healthy human subjects, plasma; conditions = oral, dose not given, together with: glecaprevir and pibrentasvir once daily; Cmax = 8470 ng/mL
SMILES = Cn1c(=O)oc2ccc(-c3ccc(C[C@@H](C#N)NC(=O)[C@@H]4CNCCCO4)cc3)cc21; assay = HPLC-MS/MS; test system = healthy male humans, plasma; conditions = oral, 10 mg; Cmax = 246 nM

For quick reference, copied from above:
SMILES = C=CCn1c(=O)c2cnc(Nc3ccc(N4CCN(C)CC4)cc3)nc2n1-c1cccc(C(C)(C)O)n1; test system = human, plasma; conditions = oral, 125 mg twice daily, day -5 lead-in, geometric mean, monotherapy; Cmax = 676 nM
SMILES = COc1cc([C@H]2Oc3ccc([C@H]4Oc5cc(O)cc(O)c5C(=O)[C@@H]4O)cc3O[C@@H]2CO)ccc1O; test system = OATP1B1/1B3 humanized mice, plasma; conditions = oral gavage, 500 mg/kg silymarin; Cmax = 510 nM
